Measured values from different studies.
Every numbered part comes from another study and shows a few of its results, in no order.
Chain of UniProt P08581 (whole entry, looked up): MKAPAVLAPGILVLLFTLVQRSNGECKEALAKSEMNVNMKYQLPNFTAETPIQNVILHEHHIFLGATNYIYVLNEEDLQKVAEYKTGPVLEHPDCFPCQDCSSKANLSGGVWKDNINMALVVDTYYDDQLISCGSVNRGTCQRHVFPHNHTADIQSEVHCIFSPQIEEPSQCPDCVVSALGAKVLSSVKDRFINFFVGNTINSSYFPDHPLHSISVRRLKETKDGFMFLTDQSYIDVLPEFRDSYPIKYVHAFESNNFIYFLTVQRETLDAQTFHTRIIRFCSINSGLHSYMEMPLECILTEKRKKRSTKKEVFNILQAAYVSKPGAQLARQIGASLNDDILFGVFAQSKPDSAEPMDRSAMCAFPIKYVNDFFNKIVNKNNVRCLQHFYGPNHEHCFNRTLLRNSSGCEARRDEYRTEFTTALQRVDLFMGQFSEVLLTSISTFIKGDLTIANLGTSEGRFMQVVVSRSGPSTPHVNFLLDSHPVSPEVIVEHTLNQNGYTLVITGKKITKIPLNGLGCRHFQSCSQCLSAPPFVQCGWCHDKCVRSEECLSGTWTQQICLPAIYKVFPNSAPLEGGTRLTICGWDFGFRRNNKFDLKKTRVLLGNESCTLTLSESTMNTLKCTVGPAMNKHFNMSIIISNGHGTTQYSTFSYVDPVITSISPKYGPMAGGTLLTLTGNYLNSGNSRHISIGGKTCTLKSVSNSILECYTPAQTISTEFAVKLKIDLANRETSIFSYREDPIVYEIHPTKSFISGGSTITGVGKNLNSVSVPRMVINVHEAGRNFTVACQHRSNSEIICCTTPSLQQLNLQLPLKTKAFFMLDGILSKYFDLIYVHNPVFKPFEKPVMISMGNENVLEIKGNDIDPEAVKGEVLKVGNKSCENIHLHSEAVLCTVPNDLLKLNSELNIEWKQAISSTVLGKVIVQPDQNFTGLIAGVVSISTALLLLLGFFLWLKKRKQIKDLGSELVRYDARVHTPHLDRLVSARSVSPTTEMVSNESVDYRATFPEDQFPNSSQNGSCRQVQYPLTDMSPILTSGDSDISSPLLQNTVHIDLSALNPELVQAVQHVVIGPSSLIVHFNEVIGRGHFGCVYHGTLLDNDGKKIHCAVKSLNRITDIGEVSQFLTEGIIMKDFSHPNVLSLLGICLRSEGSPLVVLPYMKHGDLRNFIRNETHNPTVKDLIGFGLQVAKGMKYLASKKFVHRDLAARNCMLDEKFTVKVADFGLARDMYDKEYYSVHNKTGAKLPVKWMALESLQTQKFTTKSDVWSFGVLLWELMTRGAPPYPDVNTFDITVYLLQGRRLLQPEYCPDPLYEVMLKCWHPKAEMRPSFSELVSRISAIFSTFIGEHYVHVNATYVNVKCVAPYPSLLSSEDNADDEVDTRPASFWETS
Chain of UniProt P33981 (whole entry, looked up): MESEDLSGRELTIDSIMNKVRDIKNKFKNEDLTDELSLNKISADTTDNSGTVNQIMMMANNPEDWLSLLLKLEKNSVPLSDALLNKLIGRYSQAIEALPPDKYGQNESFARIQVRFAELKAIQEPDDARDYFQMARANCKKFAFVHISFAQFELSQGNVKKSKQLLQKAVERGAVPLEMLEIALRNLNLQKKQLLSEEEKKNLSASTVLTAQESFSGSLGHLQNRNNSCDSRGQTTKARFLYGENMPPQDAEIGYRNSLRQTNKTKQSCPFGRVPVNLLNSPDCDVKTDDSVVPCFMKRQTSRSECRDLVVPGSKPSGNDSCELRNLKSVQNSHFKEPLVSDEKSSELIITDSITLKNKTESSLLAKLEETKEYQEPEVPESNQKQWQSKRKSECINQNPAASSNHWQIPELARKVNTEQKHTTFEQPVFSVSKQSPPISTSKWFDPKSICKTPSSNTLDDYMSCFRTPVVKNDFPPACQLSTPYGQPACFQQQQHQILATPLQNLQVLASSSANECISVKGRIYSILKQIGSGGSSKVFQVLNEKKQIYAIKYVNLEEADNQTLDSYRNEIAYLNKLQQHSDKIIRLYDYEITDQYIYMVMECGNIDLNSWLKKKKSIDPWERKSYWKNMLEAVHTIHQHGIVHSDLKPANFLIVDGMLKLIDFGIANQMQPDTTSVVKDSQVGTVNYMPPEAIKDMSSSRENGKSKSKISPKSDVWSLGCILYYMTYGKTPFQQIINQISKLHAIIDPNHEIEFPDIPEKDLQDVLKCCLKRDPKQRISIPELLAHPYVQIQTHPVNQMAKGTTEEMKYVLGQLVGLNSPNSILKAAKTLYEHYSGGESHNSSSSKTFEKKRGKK
Chain of UniProt P35968 (whole entry, looked up): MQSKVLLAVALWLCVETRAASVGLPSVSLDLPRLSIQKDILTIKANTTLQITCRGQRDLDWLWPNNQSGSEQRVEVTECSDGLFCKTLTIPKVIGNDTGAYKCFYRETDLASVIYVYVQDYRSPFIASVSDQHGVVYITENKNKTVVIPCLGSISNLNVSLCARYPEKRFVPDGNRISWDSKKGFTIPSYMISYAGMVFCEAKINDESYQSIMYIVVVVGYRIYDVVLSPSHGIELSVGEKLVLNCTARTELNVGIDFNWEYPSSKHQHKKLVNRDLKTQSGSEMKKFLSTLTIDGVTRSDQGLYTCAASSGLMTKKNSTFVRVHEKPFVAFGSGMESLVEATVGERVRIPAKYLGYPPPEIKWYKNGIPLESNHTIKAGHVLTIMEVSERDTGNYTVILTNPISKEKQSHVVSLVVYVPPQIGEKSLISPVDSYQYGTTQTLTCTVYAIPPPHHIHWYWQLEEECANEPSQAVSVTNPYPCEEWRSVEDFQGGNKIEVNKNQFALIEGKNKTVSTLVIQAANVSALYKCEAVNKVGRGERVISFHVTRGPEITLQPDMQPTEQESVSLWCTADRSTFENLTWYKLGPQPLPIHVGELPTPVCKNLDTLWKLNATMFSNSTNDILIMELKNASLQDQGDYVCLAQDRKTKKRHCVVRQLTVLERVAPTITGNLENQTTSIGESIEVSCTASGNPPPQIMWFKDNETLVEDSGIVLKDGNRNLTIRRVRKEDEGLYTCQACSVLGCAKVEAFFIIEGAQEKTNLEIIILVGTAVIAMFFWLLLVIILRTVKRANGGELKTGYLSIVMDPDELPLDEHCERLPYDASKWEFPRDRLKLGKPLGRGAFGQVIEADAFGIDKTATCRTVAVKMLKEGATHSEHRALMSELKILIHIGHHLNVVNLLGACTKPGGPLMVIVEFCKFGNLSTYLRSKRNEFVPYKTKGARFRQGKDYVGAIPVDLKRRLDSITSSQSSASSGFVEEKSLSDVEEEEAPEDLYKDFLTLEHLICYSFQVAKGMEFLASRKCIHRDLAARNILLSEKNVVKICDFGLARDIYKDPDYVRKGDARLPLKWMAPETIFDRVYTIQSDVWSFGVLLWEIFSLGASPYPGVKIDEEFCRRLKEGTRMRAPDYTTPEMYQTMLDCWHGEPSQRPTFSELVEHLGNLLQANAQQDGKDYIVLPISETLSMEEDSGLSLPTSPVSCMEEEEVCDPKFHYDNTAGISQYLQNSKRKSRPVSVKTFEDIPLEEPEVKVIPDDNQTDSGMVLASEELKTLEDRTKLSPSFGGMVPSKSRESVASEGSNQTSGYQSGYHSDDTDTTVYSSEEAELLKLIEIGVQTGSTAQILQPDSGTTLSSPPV
Chain of UniProt Q15759 (whole entry, looked up): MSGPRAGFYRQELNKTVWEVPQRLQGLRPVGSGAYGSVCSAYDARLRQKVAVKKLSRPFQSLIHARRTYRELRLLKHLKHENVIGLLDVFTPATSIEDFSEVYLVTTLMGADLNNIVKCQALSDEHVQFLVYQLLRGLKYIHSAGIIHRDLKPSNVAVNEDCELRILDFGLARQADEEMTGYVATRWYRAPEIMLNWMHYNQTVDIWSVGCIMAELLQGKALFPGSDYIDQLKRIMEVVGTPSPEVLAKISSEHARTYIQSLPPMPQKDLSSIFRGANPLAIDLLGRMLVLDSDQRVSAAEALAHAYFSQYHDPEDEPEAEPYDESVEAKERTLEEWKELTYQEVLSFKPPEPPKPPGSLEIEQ
Chain of UniProt Q16566 (whole entry, looked up): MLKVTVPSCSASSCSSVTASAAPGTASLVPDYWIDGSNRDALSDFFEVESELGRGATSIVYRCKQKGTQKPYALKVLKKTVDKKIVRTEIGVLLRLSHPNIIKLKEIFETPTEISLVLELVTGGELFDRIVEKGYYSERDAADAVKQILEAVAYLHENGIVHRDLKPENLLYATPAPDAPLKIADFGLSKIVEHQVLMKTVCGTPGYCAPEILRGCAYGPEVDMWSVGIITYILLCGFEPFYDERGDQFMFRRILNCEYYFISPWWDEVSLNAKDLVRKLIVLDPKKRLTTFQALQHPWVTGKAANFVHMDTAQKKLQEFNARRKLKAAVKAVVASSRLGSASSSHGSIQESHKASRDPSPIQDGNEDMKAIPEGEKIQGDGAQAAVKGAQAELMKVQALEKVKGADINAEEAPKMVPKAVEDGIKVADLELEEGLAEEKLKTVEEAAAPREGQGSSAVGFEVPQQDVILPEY

Set 1
SMILES: Cn1cc(/C=C2\C(=O)Nc3ccc(S(N)(=O)=O)cc32)c2ccccc21
Observed: enzyme activity
Mode: inhibitor
Concentration: 0.5 µM
Baseline: control
target | remaining activity [%]
Mitogen-activated protein kinase 14 (MAPK14, Homo sapiens, UniProt Q16539) | 123
Tyrosine-protein kinase TXK (TXK, Homo sapiens, UniProt P42681) | 51.3
Discoidin domain-containing receptor 2 (DDR2, Homo sapiens, UniProt Q16832) | 100
Hepatocyte growth factor receptor (MET, Homo sapiens, UniProt P08581) | 84.2
MAP/microtubule affinity-regulating kinase 4 (MARK4, Homo sapiens, UniProt Q96L34) | 40.6
Misshapen-like kinase 1 (MINK1, Homo sapiens, UniProt Q8N4C8) | 53.7
Serine/threonine-protein kinase MRCK beta (CDC42BPB, Homo sapiens, UniProt Q9Y5S2) | 114
Vascular endothelial growth factor receptor 2 (KDR, Homo sapiens, UniProt P35968) | 74.3
Serine/threonine-protein kinase tousled-like 2 (TLK2, Homo sapiens, UniProt Q86UE8) | 63.2
Serine/threonine-protein kinase MARK2 (MARK2, Homo sapiens, UniProt Q7KZI7) | 45.5
Calcium/calmodulin-dependent protein kinase type IV (CAMK4, Homo sapiens, UniProt Q16566) | 96.4
Serine/threonine-protein kinase Nek3 (NEK3, Homo sapiens, UniProt P51956) | 66.2
Mitogen-activated protein kinase 11 (MAPK11, Homo sapiens, UniProt Q15759) | 93.8
Calcium/calmodulin-dependent protein kinase type 1B (PNCK, Homo sapiens, UniProt Q6P2M8) | 58.1

Set 2
Structure (SMILES): O=C1CCc2cc(Nc3cc(OC4CCOCC4)c([N+](=O)[O-])cc3Cl)ccc2N1
Observed: cell-free assay
Technique: competition with immobilised ligand
Concentration: 1 µM
target | remaining binding [%]
Non-receptor tyrosine-protein kinase TYK2, JH1 (TYK2, Homo sapiens, UniProt P29597) | 100
Dual specificity protein kinase TTK (TTK, Homo sapiens, UniProt P33981) | 87
Cyclin-dependent kinase 13 (CDK13, Homo sapiens, UniProt Q14004) | 100
SRSF protein kinase 1 (SRPK1, Homo sapiens, UniProt Q96SB4) | 73
Myosin light chain kinase family member 4 (MYLK4, Homo sapiens, UniProt Q86YV6) | 96

Set 3
Cell line: HaCaT
Concentration: 100 µM
Time: 18 h
SMILES | viability
CCCCC(C)(O)C/C=C/[C@H]1[C@H](O)CC(=O)[C@@H]1CCCCCCC(=O)OC (mixture of isomers) | 108%
N#CC1(c2ccc(NC(=O)c3cccnc3NCc3ccncc3)cc2)CCCC1 | 35.8%
CCC(=O)NCC[C@@H]1CCc2ccc3c(c21)CCO3 | 110%
Cc1cc(O)cc(C)c1Cl | 87.1%
CC(C)/N=c1\cc2n(-c3ccc(Cl)cc3)c3ccccc3nc-2cc1Nc1ccc(Cl)cc1 | 50.6%
Cc1ccc(NC(=O)c2ccc(CN3CCN(C)CC3)cc2)cc1Nc1nc(-c2cccnc2)cs1 | 17.7%

Set 4
Target: Calcium/calmodulin-dependent protein kinase type II subunit alpha (CAMK2A, Homo sapiens, UniProt Q9UQM7)
Chain of UniProt Q9UQM7 (whole entry, looked up): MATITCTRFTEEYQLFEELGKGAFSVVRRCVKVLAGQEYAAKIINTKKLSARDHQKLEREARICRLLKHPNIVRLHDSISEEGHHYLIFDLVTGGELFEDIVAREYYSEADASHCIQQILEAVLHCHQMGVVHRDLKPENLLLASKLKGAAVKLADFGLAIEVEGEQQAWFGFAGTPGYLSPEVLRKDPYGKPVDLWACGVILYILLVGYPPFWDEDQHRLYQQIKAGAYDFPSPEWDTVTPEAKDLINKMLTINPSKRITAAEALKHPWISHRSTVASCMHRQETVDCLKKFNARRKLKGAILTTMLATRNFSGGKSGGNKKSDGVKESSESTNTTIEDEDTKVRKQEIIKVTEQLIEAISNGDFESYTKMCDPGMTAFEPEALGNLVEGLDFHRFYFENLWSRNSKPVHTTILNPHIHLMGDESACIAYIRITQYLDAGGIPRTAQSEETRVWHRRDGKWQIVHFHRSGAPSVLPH
Observed: enzyme activity
Mode: inhibitor
Concentration: 10 µM
Structure (SMILES) | inhibition [%]
COc1ccc(CO)cc1OC | 19
COc1cc2c(cc1OC)C1=Cc3ccc(OC)c(OC)c3CN1CC2 | -20
COc1cc(/C=C/C(=O)CC(=O)/C=C/c2ccc(O)c(OC)c2)ccc1O | 25
O=C(O)CCCCc1ccccc1 | 35
O=C(O)CNC(=O)c1cccc(O)c1 | 10
CO[C@H]1/C=C/O[C@@]2(C)Oc3c(C)c(O)c4c(c3C2=O)C(=O)C=C(NC(=O)/C(C)=C\C=C\[C@H](C)[C@H](O)[C@@H](C)[C@@H](O)[C@@H](C)[C@H](OC(C)=O)[C@@H]1C)C4=O | 18

Some of these lines once more (set 4):
Structure (SMILES) | inhibition [%]
O=C(O)CNC(=O)c1cccc(O)c1 | 10
O=C(O)CCCCc1ccccc1 | 35
